Values quoted from earlier work, collected from citations in different studies.
Each numbered part shows a few of the values that one paper quotes. ± gives the spread as reported.
UniProt P25084, sequence (whole entry, looked up): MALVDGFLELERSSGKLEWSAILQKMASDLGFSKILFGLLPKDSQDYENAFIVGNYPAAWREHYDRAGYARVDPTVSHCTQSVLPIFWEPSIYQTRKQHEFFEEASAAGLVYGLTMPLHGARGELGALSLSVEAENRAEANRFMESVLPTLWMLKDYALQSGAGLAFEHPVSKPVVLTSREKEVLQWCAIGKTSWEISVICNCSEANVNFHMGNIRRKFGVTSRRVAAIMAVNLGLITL
UniProt P52895, sequence (whole entry, looked up): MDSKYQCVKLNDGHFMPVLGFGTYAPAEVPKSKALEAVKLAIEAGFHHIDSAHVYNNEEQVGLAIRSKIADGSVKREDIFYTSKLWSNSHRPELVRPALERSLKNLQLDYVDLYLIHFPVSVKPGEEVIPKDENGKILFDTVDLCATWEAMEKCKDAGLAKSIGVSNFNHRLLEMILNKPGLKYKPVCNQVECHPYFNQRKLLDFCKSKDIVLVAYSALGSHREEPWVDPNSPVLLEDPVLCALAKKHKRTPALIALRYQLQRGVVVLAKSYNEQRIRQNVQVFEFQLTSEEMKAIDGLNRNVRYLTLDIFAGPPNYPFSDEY
UniProt P42866, sequence (whole entry, looked up): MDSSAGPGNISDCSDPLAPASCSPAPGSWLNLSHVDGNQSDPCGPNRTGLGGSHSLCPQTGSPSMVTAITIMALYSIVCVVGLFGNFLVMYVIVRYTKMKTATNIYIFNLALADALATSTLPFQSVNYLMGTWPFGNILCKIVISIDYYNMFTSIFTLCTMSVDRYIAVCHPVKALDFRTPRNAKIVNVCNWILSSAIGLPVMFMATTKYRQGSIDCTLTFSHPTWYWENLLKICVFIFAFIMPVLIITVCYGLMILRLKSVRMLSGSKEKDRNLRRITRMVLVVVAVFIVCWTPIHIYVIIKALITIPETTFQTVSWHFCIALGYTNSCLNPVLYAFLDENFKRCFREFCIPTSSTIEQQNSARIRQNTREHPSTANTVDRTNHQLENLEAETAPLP

Study 1 — observed: peptide-MHC binding; molecule type: peptide
Target: HLA class I histocompatibility antigen, A alpha chain, allele A*26:03 (Homo sapiens, UniProt P04439)
Molecule | IC50 [µM]
ETHDRGFAM | 0.016
RSLYNTVAVLY | > 20
YHLGGIEGL | > 20
YHRFGLYRL | > 20
IEAGDEVFF | > 20
KVFFGPIYY | > 20
SEINNLNLT | > 20
MKWMMAMKY | > 20
RFRCVGPAP | > 20
EIIWPDRQM | 0.222
HVFVCGNNM | 0.076
IARLVYKAR | > 20
NQQVTNSKY | > 20
FTYAPAGMY | 0.114
RVFPGDHFY | > 20
RRSLLAHVR | > 20
QTWHGDAPY | 0.277
RQADILRQF | > 20
SYINRTGTF | > 20
LYNTIAVLY | > 20
SDDQLRLLK | > 20
TKDAERGKL | > 20
YERGNIIIF | > 20
ILQDRIRMY | > 20
RKWGLDFCY | > 20

Other studies, line by line
20S proteasome: 20S proteasome (Plasmodium falciparum, UniProt A0A5K1K7U1+Q8I261+Q8IJT1)
SMILES | target or system | test | test system | setting | how to read | measurement | result
CC(C)n1c(/C=C/C(O)CC(O)CC(=O)O)c(-c2ccc(F)cc2)c2ccccc21 (centres unmarked) | OATP1B1 polymorphisms |  | human |  |  | pharmacokinetics | no effect
CC[C@@H](C(N)=O)N1CCCC1=O | SV2B G240C |  |  | concentration not given | relative to: wild-type SV2B | Ki change | 100 fold
CCOCC(=O)N1CCC[C@H](C(=O)NCc2nc(-c3ccc(C#N)cc3)cs2)C1 | 20S proteasome | enzyme activity, inhibitor |  | with: Suc-LLVY-AMC 20 µM |  | IC50 | 0.02 µM
CP(C)(=O)c1ccc(Nc2nc(C3CCCC3)nc3c2ncn3CCc2cccc(O)c2)cc1 | KIT D816V cells |  |  |  |  | GI50 | 0.011 µM
CC(C)[C@H](NC(=O)[C@H](CCCNC(=N)N)NC(=O)N[C@@H](Cc1ccccc1)C(=O)O)C(=O)N[C@H](C=O)CCCNC(=N)N | plasmin | enzyme activity, inhibitor |  |  |  | IC50, Ki or Kd | 6.6 µM
Oc1ccc2c3c1O[C@H]1c4[nH]c5c(c4C[C@@]4(O)[C@@H](C2)N(CC2CC2)CC[C@]314)C[C@@]1(O)[C@H]2Cc3ccc(O)c4c3[C@@]1(CCN2CC1CC1)[C@H]5O4 |  |  | mouse, brain | subcutaneous, dose not given |  | duration of detection | 21 days
O=C(O)c1c(Cl)c(Cl)c(Cl)c(Cl)c1-c1c2cc(Br)c(=O)c(Br)c-2oc2c(Br)c(O)c(Br)cc12 | Escherichia coli MraY | enzyme activity, inhibitor |  |  |  | IC50 | 32 µM
C[C@]12CC[C@H]3[C@@H](CCC4=CC(=O)CC[C@@]43CO)[C@@H]1CCC2=O | aromatase (CYP19A1) human |  |  |  |  | Kd | 1.5 µM
CN(C)CCC[C@]1(c2ccc(F)cc2)OCc2cc(C#N)ccc21 | sigma-1 receptor | binding |  |  |  | Ki | 0.05 µM
C=CC(N)=O |  | reaction with 3-mercaptopropionic acid |  | pH 8.1, 30 °C |  | second-order rate constant | 0.0046 M⁻¹ s⁻¹
CCCCCC(=O)CC(=O)N[C@H]1CCOC1=O | lasR (Pseudomonas aeruginosa, UniProt P25084) | reporter gene, cell-based |  |  |  | EC50 | 4.5 µM
Cc1cccc(-c2[nH]c(CNc3ccccc3F)nc2-c2ccc3ncnn3c2)n1 |  |  | Beagle dog | 28 days, GLP study, highest dose tested |  | NOAEL | 30 mg/kg/day
COCC(=O)N1CCC[C@H](C(=O)NCc2nc(-c3ccc(OC)cc3)cs2)C1 | 20S proteasome | enzyme activity, inhibitor |  | with: Suc-LLVY-AMC 20 µM |  | IC50 | 0.074 µM
COc1ccc(C[C@@H](C)[C@@H](C)Cc2ccc(OC)c(OC)c2)cc1OC |  |  | human, advanced refractory solid tumours | intravenous, 24 h, weekly continuous infusion |  | MTD | 2200 mg
N=C(N)c1ccc(CNC(=O)[C@@H]2CCN2C(=O)[C@H](NCC(=O)O)C2CCCCC2)cc1 | plasmin | enzyme activity, inhibitor |  |  |  | IC50, Ki or Kd | 1.4 µM
CCC(C(=O)c1ccc2c(c1)OCO2)N(C)C (centres unmarked) |  | locomotor activity | Swiss-Webster mice | intraperitoneal, no acclimation |  | ED50 | 11.2 mg/kg
O=C(NC1C=C[C@H]2[C@H]3Cc4ccc(O)c5c4[C@@]2(CCN3CC2CC2)C1O5)c1cccc(I)c1 (some centres unmarked) | Oprm1 (Mus musculus, UniProt P42866) |  |  |  |  | EC50 | 0.00021 ± 3e-05 µM
C[C@]12CC[C@H]3[C@@H](CCC4=CC(=O)CC[C@@]43C=O)[C@@H]1CCC2=O | aromatase (CYP19A1) human |  |  |  |  | Kd | 3.6 µM
COC(=O)[C@@H]1[C@H]2CC[C@@H](C[C@@H]1O)N2C | monoclonal antibody | binding |  | room temperature |  | Kd | 10 to 100 µM
CC(C)[C@@H](CN1CC[C@@](C)(c2cccc(O)c2)[C@@H](C)C1)NC(=O)[C@@]1(C)Cc2ccc(O)cc2CN1 | delta opioid receptor (human) | antagonist |  | with: DPDPE |  | Ke | 854 ± 210 nM
N.N.[Cl][Pt][Cl] | MDA-MB-231 |  |  |  |  | IC50 | 3.5 ± 0.21 µM
C[C@]12CCC(=O)C[C@@H]1CC[C@@H]1[C@@H]2CC[C@]2(C)[C@@H](O)CC[C@@H]12 | AKR1C2 (Homo sapiens, UniProt P52895) | substrate |  |  |  | Km | 2.9 µM
CC[C@H](C)C(=O)O[C@H]1C[C@H](O)C=C2C=C[C@H](C)[C@H](CC[C@@H](O)C[C@@H](O)CC(=O)O)[C@H]21 | OATP1B3 |  |  |  |  | share of hepatic uptake clearance | 4%
O=C(NC1CC[C@@]2(O)[C@H]3Cc4ccc(O)c5c4[C@@]2(CCN3CC2CC2)C1O5)c1cccc(I)c1 (some centres unmarked) |  |  | CD1 mice | subcutaneous |  | ED50 | 0.39 mg/kg
Nc1cccc2c1C(=O)N(C1CCC(=O)NC1=O)C2=O (centres unmarked) |  |  | human, relapsed/refractory multiple myeloma | alternate-day dosing |  | MTD | 5 mg
